Results pooled from the literature.
Each line is one published result; not all experiments were run side by side. ± gives the spread as reported.

SMILES | test | test system | setting | tissue uptake
CCCC[C@@H]1NC(=O)[C@@H](CC(C)C)NC(=O)[C@H](CCCCNC(=O)CN2CCN(CC(=O)O)CCN(CC(=O)O)CC2)NC(=O)[C@@H](CO)NC(=O)[C@H](Cc2c[nH]cn2)NC(=O)[C@@H](Cc2c[nH]c3ccccc23)NC1=O [copper-64 labelled] | – | Balb/c mice, blood | intravenous, dose not given | 0.29 ± 0.05 %ID/g
CC(C)C[C@@H]1NC(=O)[C@H](CC(=O)O)NC(=O)CNC(=O)[C@H](CCCNC(=N)N)NC(=O)[C@H](Cc2ccc(O)cc2)NC(=O)[C@H](CCCCNC(=O)CCc2cn(CCCNC(=O)CCP(=O)(O)CN3CCN(CP(=O)(O)CCC(=O)NCCCn4cc(CCC(=O)NCCCC[C@H]5C(=O)N[C@@H](Cc6ccc(O)cc6)C(=O)N[C@@H](CCCNC(=N)N)C(=O)NCC(=O)N[C@@H](CC(=O)O)C(=O)N[C@@H](CC(C)C)C(=O)N[C@@H](C)C(=O)N[C@@H](Cc6ccc(O)cc6)C(=O)N6CCC[C@@H]6C(=O)N5C)nn4)CCN(CP(=O)(O)CCC(=O)NCCCn4cc(CCC(=O)NCCCC[C@H]5C(=O)N[C@@H](Cc6ccc(O)cc6)C(=O)N[C@@H](CCCNC(=N)N)C(=O)NCC(=O)N[C@@H](CC(=O)O)C(=O)N[C@@H](CC(C)C)C(=O)N[C@@H](C)C(=O)N[C@@H](Cc6ccc(O)cc6)C(=O)N6CCC[C@@H]6C(=O)N5C)nn4)CC3)nn2)N(C)C(=O)[C@H]2CCCN2C(=O)[C@H](Cc2ccc(O)cc2)NC(=O)[C@H](C)NC1=O [gallium-68 labelled] | PET imaging | SCID mice with H2009 tumour, right kidney | 75 min | 22.2 %ID/g
CCCC[C@@H]1NC(=O)[C@@H](CC(C)C)NC(=O)[C@H](CCCCNC(=O)CN2CCN(CC(=O)O)CCN(CC(=O)O)CC2)NC(=O)NNC(=O)[C@H](Cc2c[nH]cn2)NC(=O)[C@@H](Cc2c[nH]c3ccccc23)NC1=O [copper-64 labelled] | – | Balb/c mice, blood | intravenous, dose not given | 0.38 ± 0.13 %ID/g
N#C[C@@H]1CC(F)(F)CN1C(=O)CNC(=O)c1ccnc2ccc(OCCCN3CCN(C(=O)CN4CCN(CC(N)=O)CCN(CC(N)=O)CCN(CC(N)=O)CC4)CC3)cc12 [lead-203 labelled] | – | male NRG mice HEK293T-hFAP tumour, blood | intravenous, 100 pmol, 1 h, unblocked | 1.59 ± 0.16 %ID/g
CC(C)C[C@@H](NC(=O)[C@@H](CC(C)C)NC(=O)[C@@H](CC(=O)O)NC(=O)[C@@H](CC(C)C)NC(=O)[C@@H](CC(C)C)NC(=O)[C@@H](CC(C)C)NC(=O)[C@H](NC(=O)[C@@H](CC(=O)O)NC(=O)[C@H](NC(=O)[C@H]1CCCN1C(=O)[C@@H](Cc1ccccc1)NC(=O)[C@@H](CC(C)C)NC(=O)[C@@H](CC(C)C)NC(=O)[C@@H](CC(=O)O)NC(=O)[C@@H](CC(C)C)NC(=O)[C@@H](Cc1ccc(O)cc1)NC(=O)[C@@H](C)NC(=O)[C@@H](CCCNC(=N)N)NC(=O)[C@@H](Cc1c[nH]c2ccccc12)NC(=O)[C@H]1CCCN1C(=O)[C@@H](CC(N)=O)NC(=O)[C@@H](CCC(N)=O)NC(=O)[C@@H](CC(=O)O)NC(=O)[C@@H](CC(=O)O)NC(=O)[C@@H](CSC1CC(=O)N(CCNC(=O)CN2CCN(CC(=O)O)CCN(CC(=O)O)CC2)C1=O)NC(=O)[C@@H](C)N)[C@H](C)O)[C@H](C)O)C(=O)N[C@H](Cc1c[nH]c2ccccc12)C(=O)O (stereo partly drawn) [fluorine-18 labelled] | – | female C57BL/6 mice, B16-F10 melanoma, tumor | intravenous, 1 h | 6.12 %ID/g
C[C@@H](O)[C@@H]1NC(=O)[C@H](CCCCN)NC(=O)[C@@H](Cc2c[nH]c3ccccc23)NC(=O)[C@H](Cc2ccc(O)cc2)NC(=O)[C@@H](NC(=O)[C@@H](Cc2ccccc2)NC(=O)CN2CCN(CC(=O)O)CCN(CC(=O)O)CCN(CC(=O)O)CC2)CSSC[C@@H](C(=O)N[C@H](CO)[C@@H](C)O)NC1=O [gallium-67 labelled] | gamma counting | ICR mice, male, pancreas | iv, 11 kBq/mouse, 3 h | 5.8 ± 0.84 %ID/g
CC(C)C[C@H](NC(=O)[C@@H](CCCCNC(=O)[C@@H](Cc1ccccc1)NC(=O)CCCCCNC(=O)CN1CCN(CC(=O)O)CCN(CC(=O)O)CCN(CC(=O)O)CC1)NC(=O)[C@H](Cc1ccc(O)cc1)NC(=O)[C@H](CO)NC(=O)[C@H](Cc1c[nH]c2ccccc12)NC(=O)[C@H](Cc1c[nH]cn1)NC(=O)[C@@H]1CCC(=O)N1)C(=O)N[C@@H](CCCNC(=N)N)C(=O)N1CCC[C@H]1C(=O)NCC(N)=O [indium-111 labelled] | – | female athymic nude mice, brain | intravenous, 0.037 MBq, 1 h | 0.01 ± 0.01 %ID/g
N#C[C@@H]1CC(F)(F)CN1C(=O)CNC(=O)c1ccnc2ccc(OCCCN3CCN(C(=S)Nc4ccc(C[C@H]5CN(CC(N)=O)CCN(CC(N)=O)CCN(CC(N)=O)CCN5CC(N)=O)cc4)CC3)cc12 [lead-203 labelled] | – | male NRG mice, HEK293T-hFAP tumour, liver | intravenous, 100 pmol, 1 h, ex vivo, unblocked | 1.73 ± 0.41 %IA/g
Cc1cc(-c2ccc(NC(=O)CC[C@H](NC(=O)CN3CCN(CC(=O)O)CCN(CC(=O)O)CCN(CC(=O)O)CC3)C(=O)NCC(=O)N[C@@H](CC(N)=O)C(=O)N[C@H](C(=O)N[C@H](C(=O)N[C@@H](CCCNC(=N)N)C(=O)N[C@@H](CCC(N)=O)C(=O)O)C(C)C)C(C)C)c(C)c2)ccc1/N=N/c1ccc2c(S(=O)(=O)O)cc(S(=O)(=O)O)c(N)c2c1O [copper-64 labelled] | – | nude mice, heart | intravenous, 48 h | 3.8 ± 0.4 %ID/g

Excerpt of the above:
SMILES | test | test system | setting | tissue uptake
CCCC[C@@H]1NC(=O)[C@@H](CC(C)C)NC(=O)[C@H](CCCCNC(=O)CN2CCN(CC(=O)O)CCN(CC(=O)O)CC2)NC(=O)[C@@H](CO)NC(=O)[C@H](Cc2c[nH]cn2)NC(=O)[C@@H](Cc2c[nH]c3ccccc23)NC1=O [copper-64 labelled] | – | Balb/c mice, blood | intravenous, dose not given | 0.29 ± 0.05 %ID/g
CC(C)C[C@@H]1NC(=O)[C@H](CC(=O)O)NC(=O)CNC(=O)[C@H](CCCNC(=N)N)NC(=O)[C@H](Cc2ccc(O)cc2)NC(=O)[C@H](CCCCNC(=O)CCc2cn(CCCNC(=O)CCP(=O)(O)CN3CCN(CP(=O)(O)CCC(=O)NCCCn4cc(CCC(=O)NCCCC[C@H]5C(=O)N[C@@H](Cc6ccc(O)cc6)C(=O)N[C@@H](CCCNC(=N)N)C(=O)NCC(=O)N[C@@H](CC(=O)O)C(=O)N[C@@H](CC(C)C)C(=O)N[C@@H](C)C(=O)N[C@@H](Cc6ccc(O)cc6)C(=O)N6CCC[C@@H]6C(=O)N5C)nn4)CCN(CP(=O)(O)CCC(=O)NCCCn4cc(CCC(=O)NCCCC[C@H]5C(=O)N[C@@H](Cc6ccc(O)cc6)C(=O)N[C@@H](CCCNC(=N)N)C(=O)NCC(=O)N[C@@H](CC(=O)O)C(=O)N[C@@H](CC(C)C)C(=O)N[C@@H](C)C(=O)N[C@@H](Cc6ccc(O)cc6)C(=O)N6CCC[C@@H]6C(=O)N5C)nn4)CC3)nn2)N(C)C(=O)[C@H]2CCCN2C(=O)[C@H](Cc2ccc(O)cc2)NC(=O)[C@H](C)NC1=O [gallium-68 labelled] | PET imaging | SCID mice with H2009 tumour, right kidney | 75 min | 22.2 %ID/g
